Published values from different studies.
A part holds a random share of what one study measured. Substitutions count along the parent as printed.

Series 1
Target: Hepatocyte nuclear factor 3-alpha (Foxa1, Mus musculus, UniProt P35582, residues 1-468, full length assumed)
Chain of UniProt P35582 (whole entry, looked up): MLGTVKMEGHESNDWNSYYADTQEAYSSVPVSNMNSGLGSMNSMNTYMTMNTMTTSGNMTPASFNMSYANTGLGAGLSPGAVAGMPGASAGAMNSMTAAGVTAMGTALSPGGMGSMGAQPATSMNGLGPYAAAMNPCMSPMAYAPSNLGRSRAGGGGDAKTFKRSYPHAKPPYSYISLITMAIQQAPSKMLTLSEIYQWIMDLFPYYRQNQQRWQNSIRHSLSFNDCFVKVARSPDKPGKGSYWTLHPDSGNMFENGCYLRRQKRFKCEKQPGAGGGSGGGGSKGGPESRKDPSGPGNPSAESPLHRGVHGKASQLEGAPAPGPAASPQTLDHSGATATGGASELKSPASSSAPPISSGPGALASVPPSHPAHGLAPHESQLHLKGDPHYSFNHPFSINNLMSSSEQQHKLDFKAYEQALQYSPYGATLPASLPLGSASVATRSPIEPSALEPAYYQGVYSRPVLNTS
Method: EMSA with sequencing
Molecule type: double-stranded DNA, one strand shown
Matrix: in vitro
Tested at: 10 and 20 nM
Notes: whole designed probe, mean of two concentrations, ends assumed
Reference: negative control set to 0
Direction: higher = stronger binding
Shared flanks, not repeated: GTGAGCGGTGCCCATTGATGGGGAAC … TTTCACTGGGATCGTGGGGAC
Strand | normalised bound fraction
CAAAAATTGTTAAATCATTAAAAAATTGTTTGAAAATATACACTTCTTGTTGTAGACCCCCACTGTACACACGACTATAAACATTGTTCCCTATGTAAACAAAAAAAGGAAACATATAATAAGAGATTTGAAAAGTCTGGACATTTCCTTCCCAACAGATATTAAAGGCAACGTCTTTAATCTAAGACATTAT | 0.546 ratio
GGTGTTTAAGAAAACAAGCCAGAATTAGATAAAGTAAAACTTACTTTATTAAATAGGATGGACACCACTTCTCCCAAGAGAACTGTCTCCAAAAGTAATCTAGAAAGATCAATCTGGTAAACTCACATCATACAGGTTCCCGTGTAAGGTATCGGGTTCAGGCAGGTGGAAGCCAAATGATCGTAATTAAAGT | 0.0148 ratio
TTTGAAATAGTTCATAATTTTAAAAGCAGCAACACTAACATTGTTCAGATTATTATAAAAGCATATATAAAGTTAGAGGATAGATGTTATATGTAAACATGAAGAAAGACTTAATATTAAATATCTCAGAGTATACACTTTATGAATAGAAATGGTGTATCCTTTTTTCCTAAGGAACGGAAGAAATTCACAT | 0.374 ratio
TCGGCCAGCCTGGCTTCTGCGCCCCGCCAGGAGGTCGCGGAGCGGAGCGCGGCCAGGAAGTGAGCTGAGAGTGACAGCTCCCCCCACGCTGTTTGTTTATTCTCTCCACACACTGGCTCTTCTTATGACTCATTCTCTTTCGGGAGGAGGGGAGAAAGGAGCGGGAGGGCGGGCGGGCAGGGGAGAGGCAGGC | 0.322 ratio
CATAGTGCTGCCAAGTAATTCTCTAGGTTGTAGAATTATTATTTATTCAGAACACTAAGCTAGATTCAGTTTTCTGCTAAGCTACAAAATAAGTAAACATGAATTACTTGGATTCCAGGATCCTGGATATAGACTAAAGATGACATTCCATTATATTTAGAAAATGACTGTTAAGTAAGAGAAAATTTCCAGA | 0.351 ratio
ATCTTCCCCCTCTTCCTTGCCCCACCAGCTCACCTTCCCGGGTTATTTGCAGATAGGAAAATAAATAAAGCCGGCATTCGTTAACCCTCTTCACGCGCATACTGCCAGAGCAAACAGATGAATCATGGTCCTTTGGCGACGCCAGGCTCCGGGAGAGCAAAGCACCGTGTCAGGGCCATGATCCGGGGTGGCC | 0.393 ratio
AGCTCAGAAAATAAAAGGGATAGAAAATCTACTTTATGACAGAACTATGTGTTTCTTTTGAATTGAAAAAAGTTTACATGGACAGTATCAATGTAAACAAATACTTTTTCTTCCTTGTTTGTAAATCAATATGAACTAATTGATTTATGATTTGTACGCATTGTAAACATGGTCCTCAATTAGTTCCCACATA | 0.457 ratio
ACTGAACTTCACTCCTGCTAGGGAGCTCTGGGAGCCAGTGTAGAATTGCATCTCCAAGCTGTCCCACCTGAGAGGTGAGGAAGCTCAAGTACTTATTTACTGATTCAGTATTGTGCTGGCAACGGGTTCTCCAGTAGGAGGTCAAGGGAGCCCTGATTTGTAGCATTTGCCAATGACCATGGTGTAAATACTC | 0.0569 ratio

Series 2
Target: ATF7, bZIP domain (human)
Method: DHFR protein complementation
Matrix: yeast
Notes: single substitutions, most at no-binding floor
Reference: wild-type JUN-FOS pair
Direction: higher = stronger binding
Starting sequence: JUN, bZIP domain (human); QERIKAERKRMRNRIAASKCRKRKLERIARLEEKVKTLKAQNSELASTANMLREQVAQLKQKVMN; partner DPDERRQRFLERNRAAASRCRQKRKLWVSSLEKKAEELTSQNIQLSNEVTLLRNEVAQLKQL
Substitution | binding fitness [natural log]
A46M | -0.928
L45Q | -1.37
S47R | -0.713
A46D | -1.25
A49G | -1.42
R53P | -1.4
A40F | -1.15
E33G | -1.19
A40T | -0.968
A40R | -0.84
M51S | -0.892
A46T | -0.784
L52M | -1.47
L38W | -1.33
L45N | -1.48
R30K | -0.942
T37H | -0.723
E32T | -1.11
V35R | -1.36
A40E | -0.839

Series 3
Target: Fragile X messenger ribonucleoprotein 1, C-terminal low-complexity region (Fmr1, Mus musculus, UniProt P35922)
Method: RNA Bind-n-Seq
Molecule type: RNA
Matrix: in vitro
Tested at: 200 nM
Notes: whole 134-nt RNA, ends assumed
With: 150 mM KCl
Reference: input library
Direction: higher = stronger binding
Shared flanks, not repeated: GGGAGUUCUACAGUCCGACGAUC … UGGAAUUCUCGGGUGUCAAGG
Strand | log2 enrichment
UGGGAGGUGGAUUUUGUUUAUUUUUUUUGCUCAUUUCCAGGGGUGGGAAUUUUUUUUUAAUAUGUGUCAUGAAUAAAGUUGUUUUUGAAA | 0.28
UCAAGUCCUGUGCUACACAUCGUAUGUACCGAAUCGGGGAAGGGGAAGGAAGGGGAAAGUAUUAUGUUACGCCGUUCGGAUCUGCACUUC | 0.549
CCUCAAGUCCUGUGCUACACAUCGUAUGUACCGAAUCGGAAAGGAGGUUUGGAAAGUAUUAUGUUACGCCGUUCGGAUCUGCACUUCCAG | -0.0682
AGUCCUGUGCUACACAUCGUAUGUACCGAAUCAAAUUUAAACCCAAACCCCCCCAAAAAAGUAUUAUGUUACGCCGUUCGGAUCUGCACU | -0.108
CCUGUGCUACACAUCGUAUGUACCGAAUCGGGGAGGGGAAAAAAAGGGGAAAAAAAGGGGAAAGUAUUAUGUUACGCCGUUCGGAUCUGC | -0.00572
UCCUGUGCUACACAUCGUAUGUACCGAAUCAAACCCCCCCAAAUUUAAACCCCCCCAAAAAAGUAUUAUGUUACGCCGUUCGGAUCUGCA | 0.438
GCAGGAAGUAAAAACAAAUGGAAAUGCUUCGGAUAGUGGCAGGGGUGGGGGUUGCUAAGGAAAGGGUGGGAUGGAAAUGGGUAAAGAGUU | 0.483
CCUGUGCUACACAUCGUAUGUACCGAAUCGGGGAGGGGUUUUUUUGGGGAAAAAAAGGGGAAAGUAUUAUGUUACGCCGUUCGGAUCUGC | 0.0419
UCCUGUGCUACACAUCGUAUGUACCGAAUCGGGGAAAAAGGGGUUUGGGGAAAAAGGGGAAAGUAUUAUGUUACGCCGUUCGGAUCUGCA | 0.561
GUCCUGUGCUACACAUCGUAUGUACCGAAUCGGGGUUUUUGGGUUUUUGGUUUUUGGGGAAAGUAUUAUGUUACGCCGUUCGGAUCUGCA | 0.0202
UGUGCUACACAUCGUAUGUACCGAAUCGGGGCCCCCCCGGGGCCCCCCCGGGCCCCCCCGGGGAAAGUAUUAUGUUACGCCGUUCGGAUC | -1.73
GCUUUGCCUUCACUUAUUUCUUUGCUUUUUAAAAACUAUUUGUAAUGUAAUUUUAAUGCAUUUUUUACAGGCCCAGUAAUGGUUAAAUAC | -0.0177
AGUCCUGUGCUACACAUCGUAUGUACCGAAUCGGAAAAAGGAAAAAGGUUUUUUUGGAAAGUAUUAUGUUACGCCGUUCGGAUCUGCACU | -1.38
CACAGACAACACGCACCCACACAGACACAGAGGGAAGGGGUUGGGAUGGGGACAGGGUGCACAGCAGGGCGGGGUAGGACCCCAGCCCCG | 1.39

Series 4
Target: RNA binding protein fox-1 homolog 2, RRM domain, GST-SBP tag (RBFOX2, Homo sapiens, UniProt O43251-10, residues 100-194)
Method: RNA Bind-n-Seq
Molecule type: RNA
Matrix: in vitro
Tested at: 365 nM
Notes: natural RNA segment, single round, ends assumed
Reference: no-protein control
Direction: higher = stronger binding
Shared flanks, not repeated: GGGAGUUCUACAGUCCGACGAUC … UGGAAUUCUCGGGUGCCAA
Residues (chain): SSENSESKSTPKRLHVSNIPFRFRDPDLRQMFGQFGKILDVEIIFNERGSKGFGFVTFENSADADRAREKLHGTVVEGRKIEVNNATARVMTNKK
Strand | RBNS enrichment (R)
GCUUACCACUCUCCAGGGCCUCCUGGGGAGCCUGUCCUGUGUUCACUUUGUUUCAGGCUGGUCUGUGCCCCGUGAGCCACAUGGCCUAGGGUGAUGCCAGGUUGUCCCGU | 0.243
AUCUCAAUCGUUGCUGAAUCCUUUCAUAUCCUAAUAGGAAUUAACCUCCAAAUAAAACAUGACUGGUCGUGUGCUGAUUGCCUGCCUGUCUGCCGUAGCCAUUAUCCCAU | 0.568
UCAUAGACCUUUUCAUUAUGAUACUGUAUCUUGCAUAGUUGAAUCUUCUCAUUUAUACAGUGCCUUUUUCUCAUGCUCAUUGUCUACUGACUUUAAGGCAGGCAACACUG | 0.398
CAUGCCGACCACAAAGGUGUCUGCGGAAACUCGAGGACAUUCACCACGAUGAUUUUCCUCUCUUUGAUGUACUUCAAGUGCAACUCAAAACUAUAUCUGCAGGGAUGAAU | 0.24
GUAAAGCAAGAUGAUACAGAAAGCUGCUCUAAAAUCUCACUGAGUGAUUUCACCUUCGCCUACUAUGAAAUGUCUCAUCAGACCUGACAUGUCUGAGAUAACCAAGGUGA | 0.308
AACUGGGUGUGCUUUAUAGCUCCAGCUUCCUGGGAGGAGCAGUGGAGCCAGCUCCCUCACCCCUUCUUGCCUUCCCUCUGCCUGGCCUGGAACUCGGGCUUCUGCCCAUU | 0.659
UCUUAGAUGACUGCUUAUUUAUGUGUAACAUAAAUCCCACAUAUUCUAAUGACAACUUCUUUAAUCCUUCCGGGUCAUAUAUUAUAUUUCCAUAGUAUCACAUACUAUUA | 0.585
UUUAAAUGCAGUGCCUAGAGAGAGAGUAUUGUCUCUUCCCCAACACUAACCCCACUCCCAUGAAGAAUUGCCUGGAAAGAUGUUUUCAAGGAAUUUGAACCAUAAAACAC | 0.408
CCUCCCGUGGAUCUCCCGGGGUGGGGGCAGGGCGGGUCCCACGAUGGCCCCCAUUGCCCUCAUCACCCUGACACCCCCACAUUCUCUCCUCUGGACCCCCAGGAGGCUGG | 0.375
CCCCACAUGUAUCACAUACUGUCAUAUUCCCACAUGUAUCACACAUGUAUUGUAAAAUUUUGUAGUUUUGAUCACUUGUGAAUUUACUGUUGAUGUGGUAGCCACCUGCU | 0.328
CACUGGGAACAAACAGCCUCGCGCUCUAUACCAAACAGCCUCGCGCUCUAUCCCAGUCGCCCAUUAGCUUGAUUCAAACAAAGCCCCAGCAGGCCUUUGCGUUUUUAUCC | 0.335
UUGGGUCUAUUCCAGCUCAUUCAUUUUAUAUUGAAAACUAAUUUAAAAAAAAAUGGUGGCUUCAGCUCCAGCCCCUUUCCAAAAUUUUUCAACCCCACCCUGUUUGGAUU | 0.729

Series 5
Target: Sal-like protein 4, full length isoform A (SALL4, Homo sapiens, UniProt Q9UJQ4, residues 1-1053)
Chain of UniProt Q9UJQ4 (whole entry, looked up): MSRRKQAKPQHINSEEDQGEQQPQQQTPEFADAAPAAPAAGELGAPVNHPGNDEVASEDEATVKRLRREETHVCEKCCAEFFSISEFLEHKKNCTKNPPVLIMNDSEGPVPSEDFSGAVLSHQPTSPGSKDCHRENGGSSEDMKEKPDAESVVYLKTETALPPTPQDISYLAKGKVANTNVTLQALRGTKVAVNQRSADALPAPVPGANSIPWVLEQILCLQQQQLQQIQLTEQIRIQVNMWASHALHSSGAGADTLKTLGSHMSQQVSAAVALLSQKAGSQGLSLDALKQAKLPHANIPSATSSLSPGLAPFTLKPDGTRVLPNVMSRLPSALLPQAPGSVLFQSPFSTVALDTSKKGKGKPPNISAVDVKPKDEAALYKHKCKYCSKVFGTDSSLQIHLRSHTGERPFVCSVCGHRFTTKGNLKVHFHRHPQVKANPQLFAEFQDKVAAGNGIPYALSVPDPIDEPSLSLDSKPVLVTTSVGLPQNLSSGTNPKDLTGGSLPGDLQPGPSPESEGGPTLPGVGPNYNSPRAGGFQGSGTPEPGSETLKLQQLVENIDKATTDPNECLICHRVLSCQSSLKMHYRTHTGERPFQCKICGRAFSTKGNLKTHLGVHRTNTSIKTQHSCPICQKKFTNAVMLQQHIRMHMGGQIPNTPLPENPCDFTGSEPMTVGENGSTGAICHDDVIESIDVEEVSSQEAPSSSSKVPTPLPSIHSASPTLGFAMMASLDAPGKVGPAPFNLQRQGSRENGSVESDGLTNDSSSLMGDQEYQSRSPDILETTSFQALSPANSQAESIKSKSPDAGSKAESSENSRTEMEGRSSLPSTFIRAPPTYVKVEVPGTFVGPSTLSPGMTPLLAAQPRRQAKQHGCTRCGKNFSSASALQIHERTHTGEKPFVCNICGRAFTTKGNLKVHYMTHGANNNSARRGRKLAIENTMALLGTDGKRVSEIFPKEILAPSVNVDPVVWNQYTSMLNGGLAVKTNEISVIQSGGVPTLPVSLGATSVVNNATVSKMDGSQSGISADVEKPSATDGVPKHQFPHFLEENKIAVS
Method: universal PBM
Molecule type: double-stranded DNA, one strand shown
Matrix: in vitro
Tested at: 600 nM
Notes: 8-mer, flanks averaged, mean of replicates
Direction: higher = stronger binding
Strand | E-score
GACGTTGC | -0.157
ACACCGAC | -0.213
GAGTCCCA | -0.241
AGAGCGAA | -0.106
CGCGGTCA | -0.301
AGTCTGGG | -0.26
CAGATGAA | 0.108
CTGCGATC | -0.084
CAGGCAAG | -0.141
GAGCCCAC | -0.258
GGTGTCTA | 0.0501
GGTGGGAA | -0.165
CAAGCGAC | -0.127
TCTTCACA | 0.179
GGGGGCAC | -0.273
TCGCCTAA | -0.135
CACAAACG | 0.0476
AACTGACG | -0.046

A few entries again (series 3):
Strand | log2 enrichment
UCCUGUGCUACACAUCGUAUGUACCGAAUCAAACCCCCCCAAAUUUAAACCCCCCCAAAAAAGUAUUAUGUUACGCCGUUCGGAUCUGCA | 0.438
GCAGGAAGUAAAAACAAAUGGAAAUGCUUCGGAUAGUGGCAGGGGUGGGGGUUGCUAAGGAAAGGGUGGGAUGGAAAUGGGUAAAGAGUU | 0.483
CCUGUGCUACACAUCGUAUGUACCGAAUCGGGGAGGGGUUUUUUUGGGGAAAAAAAGGGGAAAGUAUUAUGUUACGCCGUUCGGAUCUGC | 0.0419
UCCUGUGCUACACAUCGUAUGUACCGAAUCGGGGAAAAAGGGGUUUGGGGAAAAAGGGGAAAGUAUUAUGUUACGCCGUUCGGAUCUGCA | 0.561
GUCCUGUGCUACACAUCGUAUGUACCGAAUCGGGGUUUUUGGGUUUUUGGUUUUUGGGGAAAGUAUUAUGUUACGCCGUUCGGAUCUGCA | 0.0202
UGUGCUACACAUCGUAUGUACCGAAUCGGGGCCCCCCCGGGGCCCCCCCGGGCCCCCCCGGGGAAAGUAUUAUGUUACGCCGUUCGGAUC | -1.73
GCUUUGCCUUCACUUAUUUCUUUGCUUUUUAAAAACUAUUUGUAAUGUAAUUUUAAUGCAUUUUUUACAGGCCCAGUAAUGGUUAAAUAC | -0.0177
AGUCCUGUGCUACACAUCGUAUGUACCGAAUCGGAAAAAGGAAAAAGGUUUUUUUGGAAAGUAUUAUGUUACGCCGUUCGGAUCUGCACU | -1.38
